Experimental data gathered from unrelated publications.
Each line is one published result; not all experiments were run side by side.

O=C[C@H](C[C@@H]1CCNC1=O)NC(=O)[C@H](Cc1cccc(F)c1)NC(=O)c1cc2ccccc2[nH]1 has a half-life of 5.21 h (mouse; intraperitoneal, 20 mg/kg).
CC(C)(CCCC/C=C/CCCCCC(C)(C)C(=O)O)C(=O)O gave a half-life of 3.79 h (ICR mouse, plasma; oral, 10 mg/kg).
The half-life of CC(C)C[C@@H](/C=C/CC(=O)NC1CC(C)(C)N([O])C(C)(C)C1)NC(=O)OC(C)(C)C is reported as 0.0833 h (mouse C57BL/6NHsd, female, blood).
COCC[C@H](NC(=O)[C@H](CC(C)C)N(C)C(=O)CNC(=O)[C@@H](NC(=O)[C@H](Cc1ccc(O)cc1)NC(=O)[C@H](CCCCNC(=O)COCCOCCNC(=O)COCCOCCNC(=O)CC[C@H](NC(=O)CCCCCCCCCCCCCCCCC(=O)O)C(=O)O)NC(=O)[C@@H](N)CC(=O)O)C(C)C)C(N)=O gave a half-life of 10.3 h (LC-MS; lean mouse, plasma; subcutaneous, 325 nmol/kg).
The half-life of CCCCCCCCCCCCCCCC(=O)NCCCC[C@H](NC(=O)[C@H](CCCCN)NC(=O)[C@H](CCCCN)NC(=O)[C@@H]1CCCN1C(=O)CNC(=O)[C@H](CC(C)C)NC(=O)[C@H](CC(C)C)NC(=O)[C@H](Cc1ccc(O)cc1)NC(=O)CNC(=O)[C@H](C)NC(=O)[C@H](CO)NC(=O)[C@H](CC(N)=O)NC(=O)[C@H](CC(C)C)NC(=O)[C@@H](NC(=O)[C@H](Cc1c[nH]c2ccccc12)NC(=O)CNC)[C@@H](C)O)C(=O)N[C@@H](CCCCN)C(N)=O is reported as 2 h (CF-1 mouse, plasma; intraperitoneal, 2 mg/kg).
COc1ccc2sc3c(c2c1)SCCNC3=O gave a half-life of 0.233 h (mouse; intravenous, 25 mg/kg).
CCCCCCCC/C=C\CCCCCCCCOP(O)(O)=S.N gave a half-life of 1.38 h (mouse, female, nonirradiated; sc, dose not given).
CN(CC(=O)N(Cc1ccc(C2CCCCC2)cc1)c1ccc(C(=O)O)cc1)S(=O)(=O)c1c(F)c(F)c(F)c(F)c1F has a half-life of 0.167 to 0.25 h (CD-1 mouse, plasma; intraperitoneal, 20 mg/kg).
For CC[C@H](C)CCCCC(=O)N[C@@H](CCN)C(=O)N[C@H](C(=O)N[C@@H](CCN)C(=O)N[C@H]1CCNC(=O)[C@H]([C@@H](C)O)NC(=O)[C@H](CCN)NC(=O)[C@H](CCN)NC(=O)[C@H](CC(C)C)NC(=O)[C@@H](Cc2ccccc2)NC(=O)[C@H](CCN)NC1=O)[C@@H](C)O, the half-life was 1 h (C57BL/6 mouse, male, plasma; intravenous, 5 mg/kg).
The half-life of Cc1ccc(NS(=O)(=O)c2c(C(=O)N3CCCCCC3)c(C)n(C)c2C)c(Cl)c1 is reported as 0.828 h (ICR mouse, male, plasma; intraperitoneal, dose not given).
CCCC[C@@H]1NC(=O)[C@H](Cc2ccc(O)cc2)NC(=O)[C@@H]2CCCN2C(=O)[C@H](CC(=O)O)NC(=O)[C@H](C)NC(=O)[C@H](Cc2ccccc2)NC(=O)[C@@H]2CSCCC(=O)N3CN(CN(C3)C(=O)CCSC[C@@H](C(=O)N[C@@H](C)C(N)=O)NC1=O)C(=O)CCSC[C@H](NC(C)=O)C(=O)N[C@@H](CC(C)(C)C)C(=O)N1CCC[C@H]1C(=O)N[C@@H](CCC(=O)O)C(=O)N[C@H](CCCCNC(=O)CCc1cn(CCOCCOCCOCCN(CCOCCOCCOCCC(=O)N[C@H]3CSCCC(=O)N4CN5CN(C4)C(=O)CCSC[C@H](NC(=O)[C@@H](CC(=O)O)NC(=O)[C@H](Cc4cccc6ccccc46)NC(=O)[C@@H]4CCCN4C3=O)C(=O)N[C@@H](CCSC)C(=O)N[C@@H](CCCCNC(=N)N)C(=O)N[C@@H](CC(=O)O)C(=O)N[C@@H](Cc3c[nH]c4ccccc34)C(=O)N[C@@H](CO)C(=O)N[C@@H]([C@@H](C)O)C(=O)N3CCC[C@H]3C(=O)N3C[C@H](O)C[C@H]3C(=O)N[C@@H](Cc3c[nH]c4ccccc34)C(=O)N[C@H](C(N)=O)CSCCC5=O)CCOCCOCCOCCn3cc(CCC(=O)NCCCC[C@H]4NC(=O)[C@H](CCC(=O)O)NC(=O)[C@@H]5CCCN5C(=O)[C@H](CC(C)(C)C)NC(=O)[C@@H](NC(C)=O)CSCCC(=O)N5CN6CN(C5)C(=O)CCSC[C@H](NC(=O)[C@H](Cc5ccc(O)cc5)NC(=O)[C@@H]5CCCN5C4=O)C(=O)N[C@@H](Cc4ccccc4)C(=O)N[C@@H](C)C(=O)N[C@@H](CC(=O)O)C(=O)N4CCC[C@H]4C(=O)N[C@@H](Cc4ccc(O)cc4)C(=O)N[C@@H](CCCC)C(=O)N[C@H](C(=O)N[C@@H](C)C(N)=O)CSCCC6=O)nn3)nn1)C(=O)N1CCC[C@H]1C(=O)N[C@@H](Cc1ccc(O)cc1)C(=O)N2 gave a half-life of 2.3 h (CD-1 mouse, plasma; intraperitoneal).
